Published values pooled from the literature.
Each line is one published result; not all experiments were run side by side. Values joined by “and” are separate records of one study, mostly repeats; a detail may differ. ± gives the spread as reported.

SMILES | target or system | test | test system | conditions | how to read | endpoint | result
CC[C@H](C)[C@H](NC(=O)[C@H](CCCCN)NC(=O)CNC(=O)[C@H](CC(C)C)NC(=O)[C@H](Cc1ccccc1)NC(=O)[C@H](CCCCN)NC(=O)[C@H](CO)NC(=O)[C@H](Cc1ccccc1)NC(=O)[C@H](Cc1c[nH]c2ccccc12)NC(=O)[C@H](CCC(N)=O)NC(=O)[C@@H](NC(=O)[C@H](Cc1ccccc1)NC(=O)CCCCCNC(=O)CN1CCN(CC(=O)O)CCN(CC(=O)O)CCN(CC(=O)O)CC1)C(C)C)C(=O)N[C@@H](CCC(=O)O)C(=O)N1CCC[C@H]1C(=O)N[C@@H](CC(=O)O)C(=O)N[C@H](C(=O)N[C@@H](CO)C(=O)N[C@@H](CCC(N)=O)C(=O)N[C@H](C(=O)N[C@@H](CCC(N)=O)C(=O)N[C@@H](CC(=O)O)C(=O)N1CCC[C@H]1C(=O)N[C@@H](CC(N)=O)C(=O)N[C@@H](CC(=O)O)C(=O)N[C@@H](CCC(N)=O)C(=O)N[C@@H](Cc1ccc(O)cc1)C(=O)N[C@@H](CCC(=O)O)C(=O)N1CCC[C@H]1C(=O)N[C@@H](Cc1ccccc1)C(=O)O)C(C)C)C(C)C [copper-64 labelled] | – | – | C57BL/6 mice, male, tumour-free, small intestine | 24 h | – | tissue uptake | 6.15 ± 0.8 %ID/g
CCN(CCCCOc1ccc(CCC(=O)N2CCC(Cc3ccccc3)CC2)cc1OC)Cc1ccccc1 | – | – | Sprague-Dawley rats, both sexes, urine | oral gavage, 25 mg/kg, 0 to 6 h | reference: dose | excretion rate | 0.0322 ± 0.005%
Cc1ccc(OCCN(C)C)cc1C(=O)N[C@H](C)c1cc(-c2ccc(C#N)nc2)nc2ccccc12 | Vero E6 | – | – | 15.62 µM | – | viability | 85.2% and 101%
COc1ccc([C@@H]2CC(=O)c3c(O)cc(O[C@@H]4O[C@H](CO)[C@@H](O)[C@H](O)[C@H]4O[C@@H]4O[C@@H](C)[C@H](O)[C@@H](O)[C@H]4O)cc3O2)cc1O | – | – | male Sprague-Dawley rats, lean, faeces | oral, 100 mg/kg, 48 h | – | cumulative faecal excretion | 3350 ± 1220 ng
N=C(N)NCCC[C@@H](NC(=O)[C@H](N)Cc1c[nH]c2ccccc12)C(=O)N[C@H](CCCCN)C(=O)N[C@H](Cc1c[nH]c2ccccc12)C(=O)N[C@H](CCCNC(=N)N)C(=O)N[C@H](CCCCN)C(=O)N[C@H](Cc1c[nH]c2ccccc12)C(=O)N[C@H](CCCNC(=N)N)C(=O)N[C@H](CCCCN)C(=O)N[C@H](Cc1c[nH]c2ccccc12)C(=O)N[C@H](CCCNC(=N)N)C(=O)N[C@H](CCCCN)C(N)=O | – | – | mouse | intraperitoneal, 30 mg/kg single dose, day 1 | – | survival | 100%
Cc1ccc(OCCN(C)C)cc1C(=O)N[C@H](C)c1cc(-c2cncs2)nc2ccccc12 | Vero E6 | – | – | 15.62 µM | – | viability | 131% and 110%
CC(C)NCCCn1c(Sc2cc3c(cc2I)OCO3)nc2c(N)ncnc21 | – | LC-MS/MS | mouse, MDA-MB-468 xenograft, tumour | 75 mg/kg, 24 h | – | intratumoral concentration | 5 µM
CC1(C)C(=O)N(c2ccc(C#N)c(C(F)(F)F)c2)C(=S)N1c1ccc(C(=O)O)c(F)c1 | – | – | human, male, plasma | oral, 160 mg, single dose, fasting | – | AUC(0-t) | 62 ± 15.3 µg·h/mL
N#[11C]c1ccc(-c2csc(NN=C3CCCC3)n2)cc1 | – | – | C57BL/6 mice, male, bladder | intravenous, 3 MBq, 5 min | – | radioactivity uptake | 9.34 ± 1.17 %ID/g
COc1c(N2CC3CCCNC3C2)c(F)cc2c(=O)c(C(=O)OCc3ccc([N+](=O)[O-])s3)cn(C3CC3)c12 (stereo not drawn) | – | cyclic voltammetry | anhydrous acetonitrile | concentration not given | reference: Ag/AgCl | reduction potential | -0.88 V
COC(=O)C[C@H](NC(=O)[C@H](Cc1ccc(-c2ccccc2)cc1)NC(=O)c1ccc(-c2ccc(OP(=O)(O)O)cc2)cc1)C(=O)OC | – | – | PBS | pH 7.4, before phosphatase treatment | – | critical micelle concentration | 138 µM
CC(C)[C@@H]1NC(=O)CNC(=O)[C@H](CC(N)=O)NC(=O)[C@H](CCCNC(=N)N)NC(=O)[C@H](Cc2ccc(O)cc2)NC(=O)[C@H](C(C)C)NC(=O)[C@@H](NC(=O)[C@@H](NC(=O)[C@H](CC(N)=O)NC(=O)[C@H](Cc2c[nH]c3ccccc23)NC(=O)[C@H](C)NC(=O)[C@H](Cc2ccccc2)NC(=O)CNC(=O)[C@H](CCCCN)NC(=O)[C@H](Cc2ccccc2)NC(=O)[C@H](Cc2ccccc2)NC(=O)[C@H](CCCCN)NC(=O)OCC2c3ccccc3-c3ccccc32)C(C)C)CSSC[C@@H](C(=O)N[C@@H](Cc2c[nH]cn2)C(=O)N[C@@H](CCCNC(=N)N)C(=O)N[C@@H](CCCNC(=N)N)C(=O)N[C@@H](C)C(=O)N[C@@H](CC(N)=O)C(N)=O)NC(=O)[C@H](C(C)C)NC(=O)[C@H](CCCNC(=N)N)NC1=O | – | – | ICR mice, blood | intraperitoneal, 5 mg/kg, day 5 | – | mean corpuscular volume | 40.9 ± 1.17 fL
CC[C@H](C)[C@H](NC(=O)[C@H](C)NC(=O)[C@H](C)NC(=O)[C@H](CCC(N)=O)NC(=O)CNC(=O)[C@H](CC(C)C)NC(=O)[C@H](Cc1c[nH]cn1)NC(=O)[C@H](CCCCN)NC(=O)[C@H](C)NC(=O)CNC(=O)[C@H](CCCCN)NC(=O)[C@H](CCCNC(=N)N)NC(=O)[C@H](CC(C)C)NC(=O)[C@H](Cc1c[nH]c2ccccc12)NC(=O)[C@H](CCCCN)NC(=O)[C@H](CCCCN)NC(=O)[C@H](Cc1c[nH]c2ccccc12)NC(=O)CN)C(=O)N[C@@H](CCCCN)C(=O)NCC(=O)N[C@@H](CC(C)C)C(=O)N[C@@H](C)C(=O)N[C@@H](CO)C(=O)O | – | – | zebrafish embryos 28 hpf, E3 medium | 1 h | – | acute toxic concentration | 5 µM
O=C1NC2(CC2)COc2ncc(F)cc2[C@H]2COCCN2c2ccn3ncc1c3n2 | – | – | Sprague-Dawley rat, male, liver | oral, 5 mg/kg/day, 4 weeks, end of treatment | – | organ-to-brain weight ratio | 635 ± 72.5%
CC(C)C[C@H](NC(=O)[C@H](Cc1ccccc1)NC(=O)CNC(=O)CNC(=O)[C@@H](N)Cc1ccc(O)cc1)C(=O)N[C@@H](CSCB(O)O)C(N)=O | – | RP-HPLC | PBS | 100 µM, 24 h, pH 7.4, 25 °C | – | peptide remaining intact | ~96%

Excerpt of the above:
SMILES | target or system | test | test system | conditions | how to read | endpoint | result
Cc1ccc(OCCN(C)C)cc1C(=O)N[C@H](C)c1cc(-c2cncs2)nc2ccccc12 | Vero E6 | – | – | 15.62 µM | – | viability | 131% and 110%
CC(C)NCCCn1c(Sc2cc3c(cc2I)OCO3)nc2c(N)ncnc21 | – | LC-MS/MS | mouse, MDA-MB-468 xenograft, tumour | 75 mg/kg, 24 h | – | intratumoral concentration | 5 µM
